Measured values collected from several papers.
Compare with care: the assays were run in different laboratories.

CCOc1c([C@H](C)n2nc(C)c3c(N)ncnc32)cc(Cl)c(F)c1[C@@H]1CNC(=O)C1  patients with HR above 100 bpm (ECG; previously treated B-cell malignancy patients; oral, 15 mg once daily, baseline below thresholds): 0%
C[C@@H](Nc1cc(F)cc(F)c1)c1cc(C(=O)N(C)C)cc2c(=O)cc(N3CCOCC3)oc12  patients discontinuing for AE (measured: Diarrhea; advanced solid tumour patients; oral, dose not given, dose finding): 3.2%
O=C(Nc1nc2cccc(-c3ccc(CN4CCS(=O)(=O)CC4)cc3)n2n1)C1CC1  patients with upper abdominal pain (rheumatoid arthritis patients; oral, 150 mg once daily, 4 weeks, TEAE regardless of relatedness): 0%
Cc1cc(NC2CCN(C(=O)OC3CCN(C(=O)/C=C/CN(C)C)C3)CC2)n2ncc(C(C)C)c2n1 (centres unmarked)  patients with adverse event (Phase I dose escalation CTCAE v4.0, measured: ALT increased; patients with advanced solid tumours; dose not given, QD dosing grade 3 or higher): 5%
COc1cc2nccc(Oc3ccc(NC(=O)c4cc5c(n(-c6ccccc6)c4=O)CCCC5=O)nc3)c2cc1OC  patients, with TEAEs, drug-related grade ≥3 (CTCAE; patients with relapsed/refractory AML; oral, 6 mg once daily): 0%
CNC(=O)c1ccc(-c2cnc3ncc(Cc4ccc5ncccc5c4)n3n2)cc1F  patients with adverse event (measured: Constipation; other cancer patients; oral, 600 mg twice daily, expansion cohort, grade 3-4): 0%
NC(=O)N1c2ccccc2C=Cc2ccccc21  patients with upper abdominal pain (male patients; oral, dose not given, on-treatment adverse events): 0%
COc1cc(Nc2ncc3c(n2)-c2ccc(Cl)cc2C(c2c(F)cccc2OC)=NC3)ccc1C(=O)O  patients with adverse event (measured: Hypertension, grade 1; cancer patients, phase 1/2; oral, dose not given, with: pembrolizumab): 8%
COc1ccc([C@@H](O)c2cc(-c3ncnc4cc(N5CCOCC5)ccc34)c(F)cc2Cl)nn1  patients with TEAE (measured: Lymphopenia; locally advanced rectal cancer patients; dose not given, all dose groups, with: capecitabine plus radiotherapy): 21%
CCO[C@H]1CCN(Cc2c(OC)cc(C)c3[nH]ccc23)[C@H](c2ccc(C(=O)O)cc2)C1  patients with adverse event (measured: Nasopharyngitis; PNH patients, active haemolysis; oral, 200 mg twice daily, extension phase): 0%
Cc1cc(-c2nnc(N)nc2-c2ccc(F)cc2)cc(Cl)n1  patients with immune-mediated AE (measured: Hypothyroidism; IO-naive colorectal cancer patients; oral, dose not given, treatment-related, grade ≥3): 0%

Excerpt of the above:
NC(=O)N1c2ccccc2C=Cc2ccccc21  patients with upper abdominal pain (male patients; oral, dose not given, on-treatment adverse events): 0%
